Assay results collected from several papers.
Numbered parts are unrelated; each lists some results of a single study. Positions count from the first letter of the parent shown.

Sample 1
Target: CCNE1, cyclin fold, Cln2 fusion (human)
Technique: yeast growth competition, sequencing
Matrix: yeast
Notes: weak parent motif
Reference: not given
Direction: higher = stronger binding
Endpoint: normalised enrichment score
Parent: CDC6 docking peptide (human); TLKGRRLVFDNQL
R5M: 0.274
L2W: 1.26
L13Q: 0.787
Q12V: 0.697
D10T: -0.233
L7G: -0.126
L7E: 0.0263
V8R: 0.48
K3C: 0.958
N11D: 0.932
L13F: 0.201
R5G: 0.394
T1V: 1.07
R6Y: 0.599
N11R: 0.854
L13S: 0.574
L13I: 0.288
L2T: -0.119
G4P: 1.84
G4V: 0.291
N11Q: -0.146
Q12Y: 1.45
R6T: 0.487
K3M: 0.239
D10R: 0.198

Sample 2
Target: Interferon regulatory factor 7, full length, phosphomimetic (IRF7, Homo sapiens, UniProt Q92985, residues 1-503, S471D/S472D/S475D/S476D/S477D/S483D/S484D/S487D)
UniProt Q92985, sequence (whole entry, unmodified, looked up): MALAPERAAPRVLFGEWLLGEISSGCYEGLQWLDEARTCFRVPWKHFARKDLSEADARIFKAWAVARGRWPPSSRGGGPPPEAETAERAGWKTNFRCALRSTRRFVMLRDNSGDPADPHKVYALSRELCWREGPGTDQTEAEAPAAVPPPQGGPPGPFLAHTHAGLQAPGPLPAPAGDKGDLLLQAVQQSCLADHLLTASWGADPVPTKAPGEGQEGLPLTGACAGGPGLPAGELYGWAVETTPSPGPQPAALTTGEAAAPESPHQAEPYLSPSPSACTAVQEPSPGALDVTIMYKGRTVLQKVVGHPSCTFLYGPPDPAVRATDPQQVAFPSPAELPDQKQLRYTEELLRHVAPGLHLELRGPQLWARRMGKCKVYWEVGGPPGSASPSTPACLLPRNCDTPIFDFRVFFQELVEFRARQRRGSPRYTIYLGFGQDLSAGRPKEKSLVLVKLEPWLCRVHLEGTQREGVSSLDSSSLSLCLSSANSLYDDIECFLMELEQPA
Technique: protein-binding microarray
Form: double-stranded DNA, one strand shown
Matrix: in vitro
Concentration: 2200 nM top
Notes: 60-bp whole probe
Together with: salmon DNA 0.4 mg/ml
Reference: random background probes
Direction: higher = stronger binding
Endpoint: fitted relative affinity
Constant ends, left off below: GCCTAGCAC … GTCTTGATTCGCTTGACGCTGCTG
TCCACTTTCTTAATGCTTCTGTGCTAG: 3.89 z-score
GACGAACTGGGGTTTGGAGACGTGCTA: -0.0209 z-score
TTAGGTTTCGACTTTCGTTTAGTGCTA: 10.2 z-score
TCACCTATCTCCTCACAGACTGTGCTA: 2.02 z-score
TCACTCATGGCTTTGTAGATGTGCTAG: 0.774 z-score
GAAGGTTTCGACTTTCGGGACGTGCTA: 8.17 z-score
TTAGGTCTCGGTCTCCGTTAGTGCTAG: 0.701 z-score
GACGGTATCGTCTATCGGGACGTGCTA: 0.088 z-score
TTAGATTTCAGGCTGGATTAGTGCTAG: -0.0817 z-score
TCATATGTATATATGTGACTGTGCTAG: 0.911 z-score
TCATATTTAGAACTTCTCACTGTGCTA: 0.519 z-score
AGTATGTTCCCTATTTAAGAGTGCTAG: 1.48 z-score
CTCCCCCTCCCCCTCAGATCGTGCTAG: -0.0654 z-score
GACGATATCGGGTCTGGAGACGTGCTA: -0.029 z-score
TGAGGTTTCCTTATCCTTTAGTGCTAG: 1.74 z-score
CTTGCTTTTTAGATCGTCCCGTGCTAG: 1.44 z-score
GACGGTTTCCTTATCATGACGTGCTAG: 2.48 z-score
TGGTAATTCTTTGCTCATTTTGTGCTA: 0.46 z-score
GACGGACTGCTTTTCCTGACGTGCTAG: 0.617 z-score
TCATGTACATCTCTCTTACTGTGCTAG: 1.82 z-score
GACGATTTCGGGTTTCTAGACGTGCTA: 4.51 z-score
TTAGGACTGGACATTCGGTTAGTGCTA: 0.774 z-score

Sample 3
Target: RNA binding protein fox-1 homolog 2, RRM domain, GST-SBP tag (RBFOX2, Homo sapiens, UniProt O43251-10, residues 100-194)
Technique: RNA Bind-n-Seq
Form: RNA
Matrix: in vitro
Concentration: 365 nM
Notes: natural RNA segment, single round, ends assumed
Reference: no-protein control
Direction: higher = stronger binding
Endpoint: RBNS enrichment (R)
Construct (chain): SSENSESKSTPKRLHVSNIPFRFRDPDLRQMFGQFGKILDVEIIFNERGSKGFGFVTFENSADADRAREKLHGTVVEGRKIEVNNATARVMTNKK
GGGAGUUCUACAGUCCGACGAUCCAGAUGGUGUCUCAGAUGCUUUGGGGAAUCUUUAACAGCUGAAUUUGAGUCAGUCCUCUUAGGCUGCACCUCCAGCCUCUGCAGAUCCCCCCUCAUUUCCCAUGGAUGGUUGGAAUUCUCGGGUGCCAA: 0.304
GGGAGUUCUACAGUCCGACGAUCGUGUUUUGUAUAUGAUAUUGCAGUUUUACUAGGCAAAUCUUCAAAAGAUGCACUUUAGGAAACGAAAUAUUUCCUAAAUAACCAGGCUUCCACAUUGUACAGAAUGAGCAUGGAAUUCUCGGGUGCCAA: 5.13
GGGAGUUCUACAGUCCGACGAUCGCUUUGAGGUUGUUCACGAAACUAGAAAUGUCAUUCCAGCUUGAUUGUUUUAUCAUCAGCCAAGUUAAACCCCUGCUUCCUGCCUUUUACACCUAUUGCGUGAACAGAAUUGGAAUUCUCGGGUGCCAA: 0.27
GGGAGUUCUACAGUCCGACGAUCACAUCCAGUAAAAUUCACCCUUUGGAAAUAUACAGCUCUGUGAAUUUUGACAAAUUUAGUGUCUUGUGACCAUCACCAAGAUCAACCUGUUUUUAACCCUCCAAAAAAUUUGGAAUUCUCGGGUGCCAA: 0.578
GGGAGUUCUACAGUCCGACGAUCCAUUUAAGUUUGGCCACAUUUCAAAGAAAAUUGAAGUCCCAGCCUCAGAGAGUGUCGGUGGUUAAAGUAAGAGAACAUUGGUUGGUCAGCAACGUGAUCUGUAACUUGAUUGGAAUUCUCGGGUGCCAA: 0.989
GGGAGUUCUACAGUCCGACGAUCACCCUACAGUAGAUCCCUCUGCUUGGGUUUCAACUGGAGAUAGUGCCUUCCCCUGAUAACCAUUUUAACCCAUGGCCUUCGUCAAAACCCUUUCAUUUAGCUACUUCAAAUGGAAUUCUCGGGUGCCAA: 0.505
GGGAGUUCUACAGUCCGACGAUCGUCAGUGAAUCUGCUUGCCUUUCCUGAAAGUUUCUGGGGCUUAAGAUUCCAGACUCUGAUUCAUUAAACUAUAGUCACCCGUGUCCUGUGAUUUUAGUUUUCAUUUGUGUUGGAAUUCUCGGGUGCCAA: 0.789
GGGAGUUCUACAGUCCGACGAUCGAACUCUCCUUGCCUAGGAUGGCAACUGAUUUUGCUCUCUUUGGAAAGAUUCUAGAUAAGUCAGCAUUGUUUAAAUCCAAGUGCAGUGCAAGUCUGUGAACUGAUCUGUUUGGAAUUCUCGGGUGCCAA: 0.29
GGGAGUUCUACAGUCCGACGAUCGCAGUGAGGGAAGCAGCCCCGGGCCUGCUUGCUUCCUGUCCCCGAAAUGUUCGUUUCUUCUGAAGUAAAUAUACAUAUAUAAAUAAAUGUAUAAAUACUGCUUUGUAUCUUGGAAUUCUCGGGUGCCAA: 0.43
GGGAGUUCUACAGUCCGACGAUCAAAAAUGAAACAUUAUUUAGAAAACAAUGAGAUUACAAGUUCCAAACUCAGCCAGGAAUGUGGCUCACACCUGUAAUCCCAGCACUUUGGGACACCUAGGUGGGAGCAUCUGGAAUUCUCGGGUGCCAA: 0.986
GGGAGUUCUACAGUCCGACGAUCUUGUCCUCUCCUUGUCCCUUCAUCUUGGCUGGGCACAGUAUAUGAGUCCCCACGUGGUCGAGUCUGGAUCUGUAAAACUCUUCUGAUAAUGGCAAUACUUUAGGGCAGAGUGGAAUUCUCGGGUGCCAA: 0.81
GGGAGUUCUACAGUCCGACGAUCCAAGAUCUGCUCUCUGUCUAUGGUAUUACACAGGGAAAGCUGUGACUGCAGGAUCAGUCUCAUUCUUCUACUAGGUGCAUGGACUCCCUUCCCACUGACUUACACUCGUCUGGAAUUCUCGGGUGCCAA: 0.574

Sample 4
Target: CREB5, bZIP domain (human)
Technique: DHFR protein complementation
Matrix: yeast
Notes: single substitutions, most at no-binding floor
Reference: wild-type JUN-FOS pair
Direction: higher = stronger binding
Endpoint: binding fitness
Parent: JUN, bZIP domain (human); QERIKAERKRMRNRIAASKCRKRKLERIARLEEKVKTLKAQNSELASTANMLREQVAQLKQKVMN; partner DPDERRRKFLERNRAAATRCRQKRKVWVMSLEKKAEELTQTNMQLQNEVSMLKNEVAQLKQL
A46T: -0.16 natural log
E32C: -0.271 natural log
N42W: -1.07 natural log
A57D: -0.329 natural log
M51E: -0.235 natural log
A49P: -1.37 natural log
S43F: -0.358 natural log
Q58T: -0.268 natural log
R53K: -0.339 natural log
A40G: -0.634 natural log
K34Q: -0.426 natural log
N42A: -0.925 natural log
E44M: -0.28 natural log
L59E: -1.19 natural log

Sample 5
Target: Sal-like protein 4, full length isoform B (SALL4, Homo sapiens, UniProt Q9UJQ4-2, residues 1-616)
Technique: universal PBM
Form: double-stranded DNA, one strand shown
Matrix: in vitro
Concentration: not given
Notes: 8-mer, flanks averaged, mean of replicates
Direction: higher = stronger binding
Endpoint: E-score
ATGGTAGG: -0.0401
GTTATGAA: 0.427
GATTATGC: 0.0582
ATGAGTCG: 0.0514
TGCGCGCA: -0.0838
GGTTATCA: 0.124
ATTGAACC: 0.0668
AATTTGGG: 0.215
GAGCAGGA: -0.0846
AACTGGAC: -0.0627
GGTGGTTA: -0.0726
CGACAGGC: -0.315
AAAGGGGC: -0.0782
AAGAGAGA: 0.0207
GACTTCTC: 0.0705
ACTAGCAA: 0.132
CTTGCTTC: 0.0132
ACACAGGA: 0.0275
AGATCAAA: 0.0119
GTAGGACA: 0.0278
CCATCGCA: -0.0348
CAAAAAGC: 0.186
TAACCTTA: 0.167
ACTTCAGC: -0.115
GATGTAAC: 0.158

Single results of other studies
PhoQ, residues 284 288 289 292 302 303 SSTLSG — fold induction (PhoP, residues 12 14 15 18 19 NHFIF (Escherichia coli, UniProt P23836); Sort-seq, refers to: YFP reporter; E. coli; PhoQ-PhoP variant library, together with: 10 µM Mg2+; reference: high Mg2+ state, higher = stronger signaling): 10.4

A few entries again (single results of other studies):
PhoQ, residues 284 288 289 292 302 303 SSTLSG — fold induction (PhoP, residues 12 14 15 18 19 NHFIF (Escherichia coli, UniProt P23836); Sort-seq, refers to: YFP reporter; E. coli; PhoQ-PhoP variant library, together with: 10 µM Mg2+; reference: high Mg2+ state, higher = stronger signaling): 10.4
